Experimental data pooled from the literature.
Every numbered part comes from another study and shows a few of its results, in no order. Substitutions count along the parent as printed.
Chain of UniProt P62344 (whole entry, looked up): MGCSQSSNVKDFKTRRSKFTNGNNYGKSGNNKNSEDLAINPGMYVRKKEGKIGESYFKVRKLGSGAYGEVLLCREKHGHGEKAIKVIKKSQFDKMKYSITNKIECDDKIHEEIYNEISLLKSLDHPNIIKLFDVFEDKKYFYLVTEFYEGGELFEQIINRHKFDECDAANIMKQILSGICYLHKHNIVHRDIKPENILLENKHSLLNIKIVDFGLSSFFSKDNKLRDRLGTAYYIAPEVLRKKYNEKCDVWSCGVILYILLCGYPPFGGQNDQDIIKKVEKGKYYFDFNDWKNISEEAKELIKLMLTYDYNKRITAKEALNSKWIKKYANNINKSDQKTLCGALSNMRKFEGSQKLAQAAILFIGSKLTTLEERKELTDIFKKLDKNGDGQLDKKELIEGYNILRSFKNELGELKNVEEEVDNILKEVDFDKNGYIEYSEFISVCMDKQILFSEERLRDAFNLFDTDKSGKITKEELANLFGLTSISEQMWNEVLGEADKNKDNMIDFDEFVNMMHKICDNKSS

Set 1 — technique: protein-binding microarray; form: double-stranded DNA, one strand shown; medium: in vitro; tested at: 0.8 µM; notes: whole 60-bp probe, no competitor; direction: higher = stronger binding
Target: Centromere-binding protein 1, full length, N-terminal tag (CBF1, Saccharomyces cerevisiae, UniProt P17106, residues 1-351)
Chain of UniProt P17106 (whole entry, looked up): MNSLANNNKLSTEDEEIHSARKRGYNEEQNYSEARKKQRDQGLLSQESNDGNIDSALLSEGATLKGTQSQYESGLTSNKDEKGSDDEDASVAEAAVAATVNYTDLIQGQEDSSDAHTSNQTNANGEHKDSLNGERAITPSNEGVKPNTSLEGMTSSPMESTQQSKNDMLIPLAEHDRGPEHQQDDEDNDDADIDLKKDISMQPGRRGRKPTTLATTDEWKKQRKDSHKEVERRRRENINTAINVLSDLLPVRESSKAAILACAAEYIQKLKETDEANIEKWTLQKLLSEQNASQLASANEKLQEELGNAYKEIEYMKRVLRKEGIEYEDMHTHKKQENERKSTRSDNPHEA
`GAATTATTATTCTATCACGATCTGAGTCCCTGCTAGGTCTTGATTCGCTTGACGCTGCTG` has a fluorescence intensity of 624 a.u.
The fluorescence intensity of `CCTAACTACTATAATCACGTACGATAGCTTCGTACAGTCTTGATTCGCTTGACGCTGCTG` is reported as 566 a.u.
With `GAAAAACTTCTATTGAAGGTGACATAGAGGCATTAGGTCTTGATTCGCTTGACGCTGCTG` the fluorescence intensity was 538 a.u.
`GAAAATTGTGAGGCTGATGTTTTCTTCTTTAAATAGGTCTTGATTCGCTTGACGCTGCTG` gave a fluorescence intensity of 529 a.u.
The fluorescence intensity of `CTAAACTTGAAAAGCTGATGGGTGTCAAGCACGTTCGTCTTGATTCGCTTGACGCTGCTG` is reported as 514 a.u.
`GAATAATAAATACGTGACACAGCGTATAAGAAATAGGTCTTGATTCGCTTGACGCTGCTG` gave a fluorescence intensity of 1080 a.u.
With `GAATTAGGTTAAAAGCACGTGGCACGAGAAACGTAGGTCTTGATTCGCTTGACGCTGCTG` the fluorescence intensity was 7070 a.u.
`CTACAAGCGAGAAGTCACGCTTATAACGCAAGTTTCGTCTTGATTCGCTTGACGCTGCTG` gave a fluorescence intensity of 869 a.u.

Set 2 — target: CCNB2, cyclin fold, Cln2 fusion (human); technique: yeast growth competition, sequencing; medium: yeast; notes: weak parent motif; relative to: not given; direction: higher = stronger binding; starting sequence: viral docking peptide; KGVKRKLFAEDSS
Under “normalised enrichment score”, `KGVKRKLFAEDQS [S12Q]` is recorded as -0.0118.
For `KGVKRKLDAEDSS [F8D]`, “normalised enrichment score” read 0.104.
`KGVKRKLFAEDTS [S12T]`: “normalised enrichment score” 1.22.
`KGVKRKLFREDSS [A9R]` — result for “normalised enrichment score”: 1.18.
For `KGVKRGLFAEDSS [K6G]`, “normalised enrichment score” read 0.201.
`KGVKRKLFAMDSS [E10M]` — result for “normalised enrichment score”: 0.713.
For `KGVKRKLRAEDSS [F8R]`, “normalised enrichment score” read 0.268.
`KGVKRKLFADDSS [E10D]`: “normalised enrichment score” 1.35.
Under “normalised enrichment score”, `KGVKRKLFAETSS [D11T]` is recorded as 0.548.
Under “normalised enrichment score”, `KGVKRKRFAEDSS [L7R]` is recorded as 0.75.
`KGVKRKLFALDSS [E10L]`: “normalised enrichment score” 0.574.
`KGVKRKLFQEDSS [A9Q]`: “normalised enrichment score” 1.07.
For `KGCKRKLFAEDSS [V3C]`, “normalised enrichment score” read 0.457.
`KGVKRKLFTEDSS [A9T]`: “normalised enrichment score” 0.759.
`KGVKKKLLAEDSS [R5K F8L]` — result for “normalised enrichment score”: 0.828.
`KFVKRKLFAEDSS [G2F]`: “normalised enrichment score” 0.597.
Under “normalised enrichment score”, `KGVHRKLFAEDSS [K4H]` is recorded as 0.612.

Set 3 — technique: RNAcompete; form: RNA; medium: in vitro; tested at: 20 nM; notes: 7-mer, probes averaged, single round; relative to: mean of 7-mers; direction: higher = stronger binding
Target: PABPC1L2, full length, GST fusion (mouse, UniProt A0ABA7IW68)
Residues (chain): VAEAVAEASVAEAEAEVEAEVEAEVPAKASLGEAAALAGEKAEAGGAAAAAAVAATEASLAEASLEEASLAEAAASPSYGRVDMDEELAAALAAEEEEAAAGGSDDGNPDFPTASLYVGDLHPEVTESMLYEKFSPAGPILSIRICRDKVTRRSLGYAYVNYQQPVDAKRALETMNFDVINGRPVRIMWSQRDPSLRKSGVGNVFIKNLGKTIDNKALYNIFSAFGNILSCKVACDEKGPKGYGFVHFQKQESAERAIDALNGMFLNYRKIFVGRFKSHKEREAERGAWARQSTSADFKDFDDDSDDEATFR
`UAAGGGU` gave a 7-mer Z-score of 0.0261.
`CCCCGAG` has a 7-mer Z-score of -0.421.
The 7-mer Z-score of `GCCCUGC` is reported as -0.327.
`CCCCAAA` has a 7-mer Z-score of 0.198.
With `GAACGCC` the 7-mer Z-score was -0.244.
With `ACCCACC` the 7-mer Z-score was -0.264.
`CUGUGAG` gave a 7-mer Z-score of -0.213.
For `AGGAAUC`, the 7-mer Z-score was -0.204.

Set 4 — read-out: peptide-MHC binding; form: peptide; tested at: concentration not given
Target: HLA class I histocompatibility antigen, C alpha chain, allele C*04:01 (Homo sapiens, UniProt P10321)
For `FTASVSTVV`, binding read “inactive”.
`LEEDIQHFL` — result for binding: “inactive”.
Under binding, `FPMIIGSEL` is recorded as “inactive”.
`SRWAISHWL` — result for binding: “inactive”.

Further values, each from its own experiment
With O=C(O)[C@H]1[C@H](Cn2nnc3ccccc3c2=O)CC[C@@H]1C(=O)c1ccc(OCCC2CCOCC2)cc1 the remaining binding was 100% (Calcium-dependent protein kinase 1 (CDPK1, Plasmodium falciparum, UniProt P62344); cell-free assay, competition with immobilised ligand; 1 µM).

Excerpt of the above (set 2):
Under “normalised enrichment score”, `KGVHRKLFAEDSS [K4H]` is recorded as 0.612.
`KGVKRKLFAEDTS [S12T]`: “normalised enrichment score” 1.22.
